# Published values collected from several papers.
# Each numbered part is a random draw from the data of one study; scales do not carry over between parts. Positions count from the first letter of the parent shown.

# Study 1 — target: CCNB2, cyclin fold, Cln2 fusion (human); method: yeast growth competition, sequencing; matrix: yeast; setting: strong parent motif; relative to: not given; direction: higher = stronger binding
# Starting sequence: viral docking peptide; TSVRRALFTGGSD; partner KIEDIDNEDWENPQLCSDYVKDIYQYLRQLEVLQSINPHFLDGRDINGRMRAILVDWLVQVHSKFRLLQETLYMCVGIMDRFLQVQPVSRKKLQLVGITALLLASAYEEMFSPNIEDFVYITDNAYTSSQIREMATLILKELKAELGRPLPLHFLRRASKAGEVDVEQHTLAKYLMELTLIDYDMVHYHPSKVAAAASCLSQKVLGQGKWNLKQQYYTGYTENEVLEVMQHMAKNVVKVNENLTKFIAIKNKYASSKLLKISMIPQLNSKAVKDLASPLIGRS
Change,normalised enrichment score
TSVRRALFQGGSD [T9Q],0.821
TSVRRALQTGGSD [F8Q],0.545
TTVRRALFTGGSD [S2T],0.838
TSVRRALFSGGSD [T9S],0.709
TSVMRALFTGGSD [R4M],0.186
TSQRRALFTGGSD [V3Q],-0.188
TSVRRALFTLGSD [G10L],0.534
TSVRRALFTGRSD [G11R],0.5
TSVRRALFHGGSD [T9H],0.828
TSVRRCLFTGGSD [A6C],0.672
THVRRALFTGGSD [S2H],0.704
TSVRKALLTGGSD [R5K F8L],0.347
TSVRRAFFTGGSD [L7F],-0.288
TSTRRALFTGGSD [V3T],0.483
TSVRRALFTGGMD [S12M],0.728

# Study 2 — target: UBE2A UBC core domain (UniProt P49459); method: yeast two-hybrid; matrix: yeast; setting: mostly zero background; relative to: not given; direction: higher = stronger interaction
# Sequence of UniProt P49459 (whole entry, looked up): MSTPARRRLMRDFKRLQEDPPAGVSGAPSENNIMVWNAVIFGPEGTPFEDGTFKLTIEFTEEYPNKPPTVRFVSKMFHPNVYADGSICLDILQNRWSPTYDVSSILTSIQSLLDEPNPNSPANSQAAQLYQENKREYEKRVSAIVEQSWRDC
# B1: Ltn1 RING domain (UniProt Q6A009); chain VDKRFEGVEDCMICFSVIHGFNYSLPKKACRTCKKKFHSACLYKWFTSSNKSTCPLCRETFF
# B2: PRKN RING domain (UniProt O60260); chain LIATNSRNITCITCTDVRSPVLVFQCNSRHVICLDCFHLYCVTRLNDRQFVHDPQLGYSLPCVAGCPNSLIKELHH
# B3: ZNRF3 RING domain (UniProt Q9ULT6); chain DTLSSSSTSDCAICLEKYIDGEELRVIPCTHRFHRKCVDPWLLQHHTCPHCRHNIIEQKGNP
Molecule,lacZ reporter activity
B1 (Ltn1 RING domain),0
B2 (PRKN RING domain),0
B3 (ZNRF3 RING domain),0

# Study 3 — method: RNA Bind-n-Seq; molecule type: RNA; matrix: in vitro; concentration: 20 nM; setting: 6-mer, flanks averaged, single round; added: 150 mM KCl; relative to: input library; direction: higher = stronger binding
# Target: TAR DNA-binding protein 43, full length, His tag (TARDBP, Homo sapiens, UniProt Q13148, residues 1-414)
Oligonucleotide,6-mer enrichment (R)
GAUAUA,0.657
UCGCAA,0.635
UGUAUA,0.71
GAAAGA,0.894
CGCUCC,0.623
GAAAAC,0.604
AGAACC,0.705
AGGUAA,0.81

# Study 4 — effect on: peptide-MHC binding; molecule type: peptide; concentration: concentration not given
# Target: HLA class I histocompatibility antigen, A alpha chain, allele A*25:01 (Homo sapiens, UniProt P04439)
Molecule,binding
LVDENQSWY,inactive
KLWTSISCA,inactive
SLMASSPTSI,inactive
LSDLCNFLV,inactive

# Some of these lines once more (study 1):
Change,normalised enrichment score
TSVRRALQTGGSD [F8Q],0.545
TTVRRALFTGGSD [S2T],0.838
TSVRRALFSGGSD [T9S],0.709
